Published values pooled from the literature.
Lines come from different studies, so protocols differ. Several values in a cell are separate wells, animals, samples, runs or records.
CDK2 with cyclin A1: Cyclin-dependent kinase 2, with cyclin A1 (CDK2, Homo sapiens, UniProt P24941)
CDK2 with cyclin A: Cyclin-dependent kinase 2, with cyclin A (CDK2, Homo sapiens, UniProt P24941)
CDK2: Cyclin-dependent kinase 2 (CDK2, Homo sapiens, UniProt P24941)
CDK2 with cyclin E: Cyclin-dependent kinase 2, with cyclin E (CDK2, Homo sapiens, UniProt P24941)

SMILES	target	assay	conditions	inhibition
CCn1cc(C(=O)O)c(=O)c2c(N)c(F)c(NC3CCCCC3)cc21	CDK2 with cyclin A1	kinase activity	0.1 µM, with: ATP at Km	33.1%
NC(=O)[C@@H](O)C[C@H]1CCc2sc3ncnc(O[C@H]4CC[C@H](N5CCOCC5)CC4)c3c21	CDK2 with cyclin A1	enzyme activity, inhibitor	10 µM	41%
C=CC(=O)N1Cc2nc(-c3cc(-c4cc(Cl)cnc4Cl)c(F)cc3F)n(-c3ccncn3)c2C1	CDK2 with cyclin A	cell-free assay, inhibitor	1 µM	7.1%
Cc1[nH]nc2c1N=C(c1ccccc1Cl)c1cnc(N3CCOCC3)cc1N2	CDK2	enzyme activity, inhibitor	0.5 µM	7.9%
C=CC(=O)Nc1cccc(-c2cnc3[nH]cc(C(=O)NC(C)(C)C)c3n2)c1	CDK2	kinase activity	0.1 µM	17% and 20%
COc1ccc(C(=O)/C=C/c2ccccc2-c2c[nH]c3ccc(C#N)cc23)c(O)c1	CDK2 with cyclin A	enzyme activity, inhibitor	20 µM	-9%
COc1ccc(O)cc1-c1c[nH]c2ncc(-c3cncc(C(=O)N(C)C)c3)cc12	Cyclin-dependent kinase 2, with cyclin E1 (CDK2, Homo sapiens, UniProt P24941)	binding, competition with immobilised ligand	0.2 µM	10.4%
CN1CC[C@@H](COc2cnc(C#N)cc2-c2ccn3nc(NC(=O)C4CC4)cc3c2)C1	CDK2 with cyclin E	enzyme activity, inhibitor	1 µM	4%
Cc1cccc(O[C@H]2CCC[C@@H](C(C)CNCc3ccncc3)C2)c1 (relative stereo)	CDK2 with cyclin E	kinase activity, kinome panel screening	1 µM	2%
NC(=O)C[C@H]1CCc2sc3ncnc(O[C@H]4CC[C@H](N5CCOCC5)CC4)c3c21	CDK2 with cyclin E	enzyme activity, inhibitor	10 µM	27%
CN1CCN(Cc2ccc(-c3ccc(CO[C@H]4CCC[C@@H]4NC(=O)c4cc(-c5cnn(C)c5)cnc4N)cc3)cc2)CC1	Cyclin-dependent kinase 2, with cyclin O (CDK2, Homo sapiens, UniProt P24941)	enzyme activity, inhibitor	0.1 µM	6%

Repeated from above:
SMILES	target	assay	conditions	inhibition
NC(=O)[C@@H](O)C[C@H]1CCc2sc3ncnc(O[C@H]4CC[C@H](N5CCOCC5)CC4)c3c21	CDK2 with cyclin A1	enzyme activity, inhibitor	10 µM	41%
